Assay results pooled from the literature.
Compare with care: the assays were run in different laboratories. ± gives the spread as reported.

| Structure (SMILES) | assay | test system | setting | tissue uptake |
| --- | --- | --- | --- | --- |
| O=C([O-])c1cccc(CN(CCN(Cc2cn(Cc3ccccc3)nn2)Cc2cccc(C(=O)[O-])n2)Cc2cn(Cc3ccccc3)nn2)n1.[64Cu+2] | – | athymic nude mice, femur | intravenous, 0.25 h, together with: 64Cu | 1.27 %ID/g |
| OCc1cn(Cc2ccc(-c3noc(-c4ccc(OCC[18F])c(C(F)(F)F)c4)n3)cc2)nn1 | – | female Lewis rat, kidney | intravenous, 120 min | 1.62 ± 0.09 %ID/g |
| O=C([O-])CN1CCN(CC(=O)[O-])CCN(CC(=O)[O-])CCN(CC(=O)[O-])CC1.[64Cu+2] | – | healthy athymic nude mice, blood | intravenous, 4 h | 0.22 %ID/g |
| CCCC[C@H](NC(=O)CNC(=O)CNC(=O)CN1CCN(CC(=O)O)CCN(CC(=O)O)CCN(CC(=O)O)CC1)C(=O)N[C@H]1CC(=O)NCCCC[C@@H](C(N)=O)NC(=O)[C@H](Cc2c[nH]c3ccccc23)NC(=O)[C@H](CCCNC(=N)N)NC(=O)[C@@H](Cc2ccccc2)NC(=O)[C@H](Cc2c[nH]cn2)NC1=O [lead-203 labelled] | – | C57 mouse, kidneys | intravenous, 0.056 MBq, 2 h | 5.84 ± 2.86 %ID/g |
| CC(C)[C@H](NC(=O)[C@@H]1CCCN1C(=O)[C@H](CCCNC(=N)N)NC(=O)[C@H](CS)NC(=O)[C@H](Cc1c[nH]c2ccccc12)NC(=O)[C@H](CCCNC(=N)N)NC(=O)[C@@H](Cc1ccccc1)NC(=O)[C@H](Cc1c[nH]cn1)NC(=O)[C@H](CCC(=O)O)NC(=O)[C@H](CS)NC(=O)[C@H](CS)NC(=O)CNC(=O)[C@@H]1CC(=O)N[C@@H](CCCNC(=N)N)C(=O)NCC(=O)N[C@@H](CC(=O)O)C(=O)N[C@H](Cc2ccc(O)cc2)C(=O)N1)C(N)=O [technetium-99m labelled] | – | C57 mouse, female, B16/F1 melanoma, bone | intravenous, 0.037 MBq, 24 h | 0.47 ± 0.12 %ID/g |
| NC12CNCCNCC(NCc3ccc(CNC(=O)CCCC(=O)NCc4ccc(-c5nncnn5)cc4)cc3)(CNCCNC1)CNCCNC2.[64Cu+2] | – | athymic nude mice SW1222 xenograft, kidney | 4 h post injection, 24 h accumulation interval, together with: huA33-TCO pretargeting | 2.77 ± 0.57 %ID/g |
| O=C(O)C1CN(Cc2ccc(-c3noc(-c4ccc(OCC[18F])c(C(F)(F)F)c4)n3)cc2)C1 | – | Sprague-Dawley rat, male, normal, fat | iv, 5 min | 0.051 ± 0.011 %ID/g |
| C[C@H](CN(C)Cc1ccccc1)NC(=O)c1ccc(-c2noc(C(F)(F)[18F])n2)cc1 | PET imaging | female Sprague-Dawley rats, cerebellum | intravenous, 10 min | 1.91 ± 0.89 SUV |
| CN(C)c1ccc(-c2nc3ccc(OCCCCCN4CCN5CCN(CC4)CC(=O)[O][Al]([18F])[O]C(=O)C5)cc3s2)cc1 | – | ICR mouse, blood | intravenous, 60 min | 0.31 ± 0.06 %ID/g |
| CCCC[C@H](NC(=O)CNC(=O)CNC(=O)CN1CCN(CC(=O)O)CCN(CC(=O)O)CCN(CC(=O)O)CC1)C(=O)N[C@H]1CC(=O)NCCCC[C@@H](C(N)=O)NC(=O)[C@H](Cc2c[nH]c3ccccc23)NC(=O)[C@H](CCCNC(=N)N)NC(=O)[C@@H](Cc2ccccc2)NC(=O)[C@H](Cc2c[nH]cn2)NC1=O [copper-64 labelled] | – | female C57 mouse, B16/F1 melanoma, stomach | intravenous, 0.037 MBq, 4 h | 5.09 ± 0.69 %ID/g |
| CC(C)[C@H](NC(=O)[C@@H]1CCCN1C(=O)[C@H](CCCNC(=N)N)NC(=O)[C@H](CS)NC(=O)[C@H](Cc1c[nH]c2ccccc12)NC(=O)[C@H](CCCNC(=N)N)NC(=O)[C@@H](Cc1ccccc1)NC(=O)[C@H](Cc1c[nH]cn1)NC(=O)[C@H](CCC(=O)O)NC(=O)[C@H](CS)NC(=O)[C@H](CS)NC(=O)[C@@H]1CC(=O)N[C@@H](CCCNC(=N)N)C(=O)NCC(=O)N[C@@H](CC(=O)O)C(=O)N[C@H](Cc2ccc(O)cc2)C(=O)N1)C(N)=O [technetium-99m labelled] | – | C57 mouse, female, B16/F1 melanoma, skin | intravenous, 0.037 MBq, 0.5 h | 7.49 ± 1.75 %ID/g |
| O=C([O-])CN1CCN(CC(=O)[O-])CCN(CC(=O)NCCc2ccc3c(c2)C2C=CCC2C(c2cc4c(cc2Br)OCO4)N3)CCN(CC(=O)[O-])CC1.[111In+3] (stereo not shown) | – | mouse, Hec50 endometrial tumour, spleen | 0.5 h post injection | 0.76 ± 0.06 %ID/g |
| CCCC[C@H](NC(=O)CNC(=O)CNC(=O)CN1CCN(CC(=O)O)CCN(CC(=O)O)CC1)C(=O)N[C@H]1CC(=O)NCCCC[C@@H](C(N)=O)NC(=O)[C@H](Cc2c[nH]c3ccccc23)NC(=O)[C@H](CCCNC(=N)N)NC(=O)[C@@H](Cc2ccccc2)NC(=O)[C@H](Cc2c[nH]cn2)NC1=O [copper-64 labelled] | – | female C57 mouse, B16/F1 melanoma, heart | intravenous, 0.037 MBq, 24 h | 0.13 ± 0.09 %ID/g |

Excerpt of the above:
| Structure (SMILES) | assay | test system | setting | tissue uptake |
| --- | --- | --- | --- | --- |
| O=C([O-])CN1CCN(CC(=O)[O-])CCN(CC(=O)NCCc2ccc3c(c2)C2C=CCC2C(c2cc4c(cc2Br)OCO4)N3)CCN(CC(=O)[O-])CC1.[111In+3] (stereo not shown) | – | mouse, Hec50 endometrial tumour, spleen | 0.5 h post injection | 0.76 ± 0.06 %ID/g |
| O=C([O-])c1cccc(CN(CCN(Cc2cn(Cc3ccccc3)nn2)Cc2cccc(C(=O)[O-])n2)Cc2cn(Cc3ccccc3)nn2)n1.[64Cu+2] | – | athymic nude mice, femur | intravenous, 0.25 h, together with: 64Cu | 1.27 %ID/g |
